Assay results from different studies.
“And” joins repeats or separate records; there may be more than shown. ± marks the error that the study gave.

c1ccc(-c2n[nH]cc2-c2ccnc3ccccc23)nc1  log2 fold change (YAK1 (Candida albicans); kinase binding, MIB/MS competition; Candida albicans lysate; 1 µM; relative to: DMSO): -0.28
Nc1ncc(-c2cc(-c3cnn(CC(F)(F)F)c3)ncc2F)nc1C(=O)NC1CNCC(F)C1 (stereo not drawn)  remaining binding (FES; KINOMEscan; 1 µM; relative to: DMSO control): 100%
N#CCNC(=O)c1ccc([C@H]2[C@@H](F)[C@@H](F)C[C@@H](F)[C@H]2F)cc1  hepatic clearance (hepatocyte stability; cryopreserved human hepatocytes; 1 µM): 6.9 mL/min/kg
COC1OC(C)C(OS(=O)(=O)O)C(OC2OC(C)C(OS(=O)(=O)O)C(OC3OC(C)C(OS(=O)(=O)O)C(OC4OC(C)C(OS(=O)(=O)O)C(OC5OC(C)C(OS(=O)(=O)O)C(OC6OC(C)C(OS(=O)(=O)O)C(OC7OC(C)C(OS(=O)(=O)O)C(OS(=O)(=O)O)C7OS(=O)(=O)O)C6OS(=O)(=O)O)C5OS(=O)(=O)O)C4OS(=O)(=O)O)C3OS(=O)(=O)O)C2OS(=O)(=O)O)C1OS(=O)(=O)O (stereo not drawn)  activated partial thromboplastin time (human plasma; 128 µg/mL): 395.1 ± 3 s
CC[n+]1cccc2cc(/C=N/NC(=O)c3ccc4ccc5ccc(C(=O)N/N=C/c6ccc7c(ccc[n+]7CC)c6)nc5c4n3)ccc21  ΔTm (22CTA telomeric G4-DNA antiparallel; FRET melting; 1 µM, K10 buffer, DNA 0.2 µM, added: ds26 10 µM): 22.5 ± 0.4 °C
O=C(c1ccc([C@H]2[C@@H](F)[C@@H](F)C[C@@H](F)[C@H]2F)cc1)N1CCCC1  hepatic clearance (hepatocyte stability; cryopreserved mouse hepatocytes; 1 µM): 81 mL/min/kg
O=C(N/N=C/c1ccc2c(ccc[n+]2Cc2ccccc2)c1)c1cc(C(=O)N/N=C/c2ccc3c(ccc[n+]3Cc3ccccc3)c2)ncn1  ΔTm (22CTA telomeric G4-DNA antiparallel; FRET melting; 1 µM, K10 buffer, DNA 0.2 µM, added: ds26 10 µM): 11.8 ± 0.6 °C
CO[C@@H]1[C@@H](OC(N)=O)[C@@H](O)[C@H](Oc2ccc3c(O)c(NC(=O)c4ccc(O)c(CC=C(C)C)c4)c(=O)oc3c2C)OC1(C)C  colony survival (DLD-1 BRCA2-/-; 200 µM, replicate B; relative to: untreated): 0.312%
C[n+]1ccc(/C=N/NC(=O)c2cccc(C(=O)N/N=C/c3cc[n+](C)c4ccccc34)n2)c2ccccc21  ΔTm (22CTA telomeric G4-DNA antiparallel; FRET melting; 1 µM, K10 buffer, DNA 0.2 µM, added: ds26 10 µM): 17.2 ± 1.2 °C
Cc1cc(Cl)cc(S(C)=NC#N)c1NC(=O)c1cc(Br)nn1-c1ncccc1Cl (stereo not drawn)  corrected larval mortality (Plutella xylostella; Raphanus sativus field; 50 ppm, 72 h, 10% wettable powder): 90.4%
C[n+]1ccc(/C=N/NC(=O)C(=O)N/N=C/c2cc[n+](C)c3ccccc23)c2ccccc21  ΔTm (22CTA telomeric G4-DNA antiparallel; FRET melting; 1 µM, K10 buffer, DNA 0.2 µM): 3.2 ± 1.6 °C
C=CC(=O)N1[C@@H](c2ccc3c(c2)OCO3)c2[nH]c3ccccc3c2C[C@H]1C(=O)N1CCN(C)CC1  relative co-enrichment (human cyclin E1 N112C-3xFLAG:CDK2; co-IP with TMT proteomics, refers to: DDX3X; concentration not given, O00571; relative to: wild type DMSO): 97%
O=c1c(Oc2ccccc2)c(C(F)(F)F)oc2c(O)c(O)ccc12  di-ubiquitin formed (ROC1-CUL1 E3 subcomplex; di-ubiquitin synthesis; 300 µM; relative to: input): 19%
C=CC(=O)Nc1cccc(Cn2ncc3cnc(Nc4cnn(CCOC)c4)nc32)c1  percent of control (ACVR1B human; binding, KINOMEscan; 100 nM; lower = stronger binding): 93%
COC1OC(C)C(OC2OC(C)C(O)C(OC3OC(C)C(OC4OC(C)C(O)C(OC5OC(C)C(OC6OC(C)C(O)C(OC7OC(C)C(OC8OC(C)C(O)C(OC9OC(C)C(OC%10OC(C)C(O)C(OC%11OC(C)C(OC%12OC(C)C(O)C(OS(=O)(=O)O)C%12OS(=O)(=O)O)C(OS(=O)(=O)O)C%11OS(=O)(=O)O)C%10OS(=O)(=O)O)C(OS(=O)(=O)O)C9OS(=O)(=O)O)C8OS(=O)(=O)O)C(OS(=O)(=O)O)C7OS(=O)(=O)O)C6OS(=O)(=O)O)C(OS(=O)(=O)O)C5OS(=O)(=O)O)C4OS(=O)(=O)O)C(OS(=O)(=O)O)C3OS(=O)(=O)O)C2OS(=O)(=O)O)C(OS(=O)(=O)O)C1OS(=O)(=O)O (stereo not drawn)  activated partial thromboplastin time (human plasma; 64 µg/mL): 94.1 s and 93.4 s and 96.7 s
O=C(N/N=C/c1cc[n+](Cc2ccccc2)c2ccccc12)c1cncc(C(=O)N/N=C/c2cc[n+](Cc3ccccc3)c3ccccc23)n1  ΔTm (22CTA telomeric G4-DNA antiparallel; FRET melting; 1 µM, K10 buffer, DNA 0.2 µM, added: ds26 10 µM): 16 ± 0.2 °C
COC1CN([C@H]2CC[C@H]([C@@]3(C)Oc4c(Cl)cc(C(=O)NCc5c(SC)cc(C)[nH]c5=O)c(C)c4O3)CC2)C1  log2 fold change (RNA-seq, refers to: KIFC3 mouse homolog; mouse, HT-1376 xenograft, whole blood; dose not given; relative to: vehicle): 0.459
COC1OC(C)C(OS(=O)(=O)O)C(OC2OC(C)C(OS(=O)(=O)O)C(OC3OC(C)C(OS(=O)(=O)O)C(OS(=O)(=O)O)C3OS(=O)(=O)O)C2OS(=O)(=O)O)C1OS(=O)(=O)O (stereo not drawn)  activated partial thromboplastin time (human plasma; 128 µg/mL): 53.9 ± 1.7 s
Nc1nc2cc(CC[C@H]3C[C@@H](n4ccc5c(N)ncnc54)[C@H](O)[C@@H]3O)ccc2cc1Br  %ΔTGI (NCI-H520 xenograft, mouse; 10.0 mg/kg/day, day 27): 109%
C[n+]1ccc(/C=N/NC(=O)c2cncc(C(=O)N/N=C/c3cc[n+](C)c4ccccc34)n2)c2ccccc21  ΔTm (22CTA telomeric G4-DNA antiparallel; FRET melting; 1 µM, K10 buffer, DNA 0.2 µM): 15.3 ± 0.4 °C
Cc1ncsc1-c1ccc(C(C)NC(=O)C2CC(O)CN2C(=O)C(NC(=O)CCCCCCCCCCN2CCCC(Nc3ncc(Cl)c(Nc4ccccc4S(=O)(=O)C(C)C)n3)C2)C(C)(C)C)cc1 (stereo not drawn)  log2 fold change (22Rv1; RNA-seq, refers to: OSBPL5 mRNA; concentration not given; relative to: DMSO): -1.66

Excerpt of the above:
Cc1cc(Cl)cc(S(C)=NC#N)c1NC(=O)c1cc(Br)nn1-c1ncccc1Cl (stereo not drawn)  corrected larval mortality (Plutella xylostella; Raphanus sativus field; 50 ppm, 72 h, 10% wettable powder): 90.4%
COC1OC(C)C(OS(=O)(=O)O)C(OC2OC(C)C(OS(=O)(=O)O)C(OC3OC(C)C(OS(=O)(=O)O)C(OS(=O)(=O)O)C3OS(=O)(=O)O)C2OS(=O)(=O)O)C1OS(=O)(=O)O (stereo not drawn)  activated partial thromboplastin time (human plasma; 128 µg/mL): 53.9 ± 1.7 s
CO[C@@H]1[C@@H](OC(N)=O)[C@@H](O)[C@H](Oc2ccc3c(O)c(NC(=O)c4ccc(O)c(CC=C(C)C)c4)c(=O)oc3c2C)OC1(C)C  colony survival (DLD-1 BRCA2-/-; 200 µM, replicate B; relative to: untreated): 0.312%
